Measured values of several laboratories.
Numbered parts are unrelated; each lists some results of a single study. Substitutions count along the parent as printed.

Series 1 — target: JDP2, bZIP domain (human); method: DHFR protein complementation; matrix: yeast; baseline: wild-type JUN-FOS pair; reading: higher = stronger binding; measurement: binding fitness
Setting: single substitutions, most at no-binding floor
Starting sequence: JUN, bZIP domain (human); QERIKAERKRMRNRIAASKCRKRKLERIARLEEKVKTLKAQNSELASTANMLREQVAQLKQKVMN; partner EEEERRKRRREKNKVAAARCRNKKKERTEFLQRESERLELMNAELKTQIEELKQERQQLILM
R30Q: 0.291 natural log
L45T: -0.398 natural log
I28R: 0.317 natural log
T48V: 0.255 natural log
S47A: 0.282 natural log
A29Y: 0.22 natural log
A57P: -0.613 natural log
A49W: 0.179 natural log
S43T: 0.338 natural log
E44N: 0.211 natural log
Q41E: 0.32 natural log
T37L: 0.326 natural log
A40P: -0.871 natural log
E32I: 0.0437 natural log
V35G: -0.275 natural log
Q41M: 0.301 natural log
N42D: -0.521 natural log
K39R: 0.323 natural log
E33C: 0.19 natural log
V56F: -0.471 natural log
A29E: 0.122 natural log
R30M: 0.31 natural log
K36I: 0.26 natural log
V35S: -0.0387 natural log
L38W: -0.00949 natural log

Series 2 — method: DHFR PCA, deep sequencing; matrix: yeast; added: (+)-ABA 0.032 µM; baseline: wild-type fitted maximum; reading: higher = stronger binding; measurement: relative binding score
Target: ABI1, truncated, D143A, DHFR fusion (Arabidopsis thaliana)
Setting: methotrexate growth selection, single substitutions
Starting sequence: PYL1, truncated, DHFR fusion (Arabidopsis thaliana); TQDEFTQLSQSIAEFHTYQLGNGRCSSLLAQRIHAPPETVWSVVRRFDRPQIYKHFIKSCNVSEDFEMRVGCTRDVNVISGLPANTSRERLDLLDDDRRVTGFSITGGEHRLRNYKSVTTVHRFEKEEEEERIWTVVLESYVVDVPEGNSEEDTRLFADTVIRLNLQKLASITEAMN
H34W: 10.7%
N85I: 64.1%
D96A: 2.57%
Q167Y: -10.8%
Q7V: 26.2%
E64H: 24.8%
S9W: 11.5%
E152H: 3.91%
Y115L: 1.68%
D48F: 5.25%
I133T: 36%
D96N: 6.73%
E127W: 11%
T6P: 44.1%
R24A: 2.74%
I52S: 12.1%
C60V: 41.4%

Series 3 — method: RNA Bind-n-Seq; molecule type: RNA; matrix: in vitro; tested at: 200 nM; setting: whole 134-nt RNA, ends assumed; added: 150 mM LiCl; baseline: input library; reading: higher = stronger binding; measurement: log2 enrichment; all molecules: 7-deaza-guanosine replaces G
Target: Ras GTPase-activating protein-binding protein 1, full length (G3BP1, Homo sapiens, UniProt Q13283)
Chain of UniProt Q13283 (whole entry, looked up): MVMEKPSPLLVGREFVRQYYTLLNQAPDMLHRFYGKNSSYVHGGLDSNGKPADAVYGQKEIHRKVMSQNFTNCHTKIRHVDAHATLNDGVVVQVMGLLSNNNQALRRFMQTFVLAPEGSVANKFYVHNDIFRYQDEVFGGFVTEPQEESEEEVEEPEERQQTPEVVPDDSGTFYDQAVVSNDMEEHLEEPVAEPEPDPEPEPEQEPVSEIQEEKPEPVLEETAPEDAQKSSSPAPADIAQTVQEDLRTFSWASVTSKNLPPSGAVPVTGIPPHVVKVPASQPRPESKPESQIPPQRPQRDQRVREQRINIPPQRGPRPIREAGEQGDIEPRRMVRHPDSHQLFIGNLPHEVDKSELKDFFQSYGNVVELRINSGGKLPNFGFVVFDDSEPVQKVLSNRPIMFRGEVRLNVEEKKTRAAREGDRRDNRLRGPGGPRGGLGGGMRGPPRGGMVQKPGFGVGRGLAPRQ
Constant ends, left off below: GGGAGUUCUACAGUCCGACGAUC … UGGAAUUCUCGGGUGUCAAGG
CCUGUGCUACACAUCGUAUGUACCGAAUCGGGUUUUUUUGGGGUUUUUUUGGUUUUUUUGGAAAGUAUUAUGUUACGCCGUUCGGAUCUG: 1.17
UGGCCCUGGUGGCAUGCGGGGAGGAAGAGGUGGCCUCAUGGAUCGUGGUGGUCCCGGUGUAAUGUUCAGAGGUGGCCGUGGUGGAGACAG: -0.332
AAGUCCUGUGCUACACAUCGUAUGUACCGAAUCGGGGAAAAGGAAAAGGGGAAAAGGAAAGUAUUAUGUUACGCCGUUCGGAUCUGCACU: 0.291
UCCUGUGCUACACAUCGUAUGUACCGAAUCGGGCCCCCCGGGGCCCCCCGGGCCCCCCGGAAAGUAUUAUGUUACGCCGUUCGGAUCUGC: -1.33
AAGUCCUGUGCUACACAUCGUAUGUACCGAAUCGGGAAAGGGAGGGAAAAAAAGGGAAAGUAUUAUGUUACGCCGUUCGGAUCUGCACUU: 0.484
GUCCUGUGCUACACAUCGUAUGUACCGAAUCAAAUUUUUAAAUUUUUAAAUUUUUAAAAAAGUAUUAUGUUACGCCGUUCGGAUCUGCAC: -2.87
UGUCUGGUGACAAGGAAGAGGAUGCUCCUCAUAGAGAAGAUUACUUUGAGCCCAUUUCUCCUGAUCGGAAUUCUGUUCCCCAGGAAGGGC: -1.31
CACAGACAACACGCACCCACAUAGACACAGAGGGAAGGGGUUGGGAUGGGGACAGGGUGCACAGCAGGGCGGGGUAGGACCCCAGCCCCU: 0.282

Series 4 — method: EMSA with sequencing; molecule type: double-stranded DNA, one strand shown; matrix: in vitro; tested at: 10 and 20 nM; baseline: negative control set to 0; reading: higher = stronger binding; measurement: normalised bound fraction
Target: Hepatocyte nuclear factor 3-alpha (Foxa1, Mus musculus, UniProt P35582, residues 1-468, full length assumed)
Setting: whole designed probe, mean of two concentrations, ends assumed
Constant ends, left off below: GTGAGCGGTGCCCATTGATGGGGAAC … TTTCACTGGGATCGTGGGGAC
Construct (chain): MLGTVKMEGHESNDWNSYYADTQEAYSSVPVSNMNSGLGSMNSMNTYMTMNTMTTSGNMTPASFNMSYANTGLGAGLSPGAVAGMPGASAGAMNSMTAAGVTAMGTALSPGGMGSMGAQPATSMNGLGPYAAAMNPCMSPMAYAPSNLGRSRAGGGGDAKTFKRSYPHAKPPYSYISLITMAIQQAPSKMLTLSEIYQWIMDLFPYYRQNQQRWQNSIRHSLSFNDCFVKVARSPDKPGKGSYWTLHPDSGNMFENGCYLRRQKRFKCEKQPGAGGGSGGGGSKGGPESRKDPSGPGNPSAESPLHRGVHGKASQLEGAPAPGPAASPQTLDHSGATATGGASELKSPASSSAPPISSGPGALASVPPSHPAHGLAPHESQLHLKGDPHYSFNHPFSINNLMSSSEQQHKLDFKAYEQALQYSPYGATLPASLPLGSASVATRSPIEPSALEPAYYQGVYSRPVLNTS
CAATTTCTTAAGCTCAAAGTTAATGTTTTCTTTTTCTTTTTTATCTTTTTCTCACTTTTGGTTCCTTTTGATAGCTTTTGGGGAGAAAAAATATGTAAACATGCATTTACTCGTCATATTTCTTGAAGTCAAGACCTTTCACAAACCTGTTTGAAGTATTTTATAGTTCCTGACATCTTTTACAATAAATAAT: 0.26 ratio
GCATAAGCATTGCCAAGCCCAGATCTAATGGATAGTCACTTCAAGGCTGCTCTGTGTGGAAGCCTTACTCTTGTTTTTTTCACCTGCCTATCCTGTTGACCTATTTATTTTTATGTGAATGTCATTGTTTTATTCGCTTTAACAATATATTACATTTTGTGTCTGGTAATATAAGTCATTCTTTAATAATCTT: 0.0867 ratio
TTTCTTTCCACCTCCTTACTCTGAGACAGAGATCCAGTTTATATGTACATTCTATCTTATAAATCAACACTGACAGTTGTATAATTTTAAATGTAAACAAGGACAAAAAAGAATAGAAAATAAGCACATTTTAGGACACAGAATAATCAAAGCCAACATATTATAATATTTAGTTTATTGCAATATTGTGGAG: 0.344 ratio
CCTCTCTGTGTTAATAATTAGACAAAGCTGGAGTCAGAAGTGAAGTTTCTATTAGACAGAGAGGCATAAACAGAGTAAGAATGAAGTGTGTCTTGTGTACATATGGGAGGGAAAATGAGGTTCAAGAGTCCATAAAAGCTTTAGTAATATTTGATCAGCAGTGTTTGTGCCTTCTTTTTCCTGGACTGCAACT: 0.279 ratio
CCTGAGTTGGTGGAGCCACAAAAAGGAATCCCTGAGTCACTGCTTAGTCACTGGGCTGCCTTGGAGAGTTGATGAGACCTCAGCAAACTTTGTGTAAATAAAGAAATGAACGCTTACATTTTAACTACCGGAACTTGGAGGTTTGTTTGTTACTGCAACAAAGGTTAGCTTTATTGACTAATGCACTGTAACA: 0.494 ratio

Series 5 — target: CCNE1, cyclin fold, Cln2 fusion (human); method: yeast growth competition, sequencing; matrix: yeast; setting: weak parent motif; baseline: not given; reading: higher = stronger binding; measurement: normalised enrichment score
Starting sequence: SAMHD1 docking peptide (human); ASKSRVQLFKDDP
ASKVRVQLFKDDP [S4V]: 3.1
ASKSRVQLFKYDP [D11Y]: 0.0589
ASKERVQLFKDDP [S4E]: -0.155
AQKSRVQLFKDDP [S2Q]: 0.0137
ASKSRVFLFKDDP [Q7F]: 0.297
ASKSRVQLFKVDP [D11V]: 0.144
ASKSRVQLWKDDP [F9W]: 0.235
ASKQRVQLFKDDP [S4Q]: 0.178
ASKSRVQRFKDDP [L8R]: -0.26
ASKSNVQLFKDDP [R5N]: -0.381
ASKARVQLFKDDP [S4A]: 1.94
ASKSRVQLYKDDP [F9Y]: 0.0535
ASKSRVQLFADDP [K10A]: 0.192
ASKSIVQLFKDDP [R5I]: 0.225
ASKSPVQLFKDDP [R5P]: -0.309
ASKKRVQLFKDDP [S4K]: -0.329

A few entries again (series 1):
S43T: 0.338 natural log
Q41E: 0.32 natural log
E33C: 0.19 natural log
K36I: 0.26 natural log
N42D: -0.521 natural log
A40P: -0.871 natural log
L38W: -0.00949 natural log
A57P: -0.613 natural log
R30Q: 0.291 natural log
V56F: -0.471 natural log
K39R: 0.323 natural log
